# Published values pooled from the literature.
# Each line is one published result; not all experiments were run side by side. “And” joins repeats or separate records; there may be more than shown. Numbers after ± are the reported error.
# B1: C19orf43 protein; sequence looked up; chain MAARGRRAEPQGREAPGPAGGGGGGSRWAESGSGTSPESGDEEVSGAGSSPVSGGVNLFANDGSFLELFKRKMEEEQRQRQEEPPPGPQRPDQSAAAAGPGDPKRKGGPGSTLSFVGKRRGGNKLALKTGIVAKKQKTEDEVLTSKGDAWAKYMAEVKKYKAHQCGDDDKTRPLVK
# B2: CRKL; sequence looked up; chain MSSARFDSSDRSAWYMGPVSRQEAQTRLQGQRHGMFLVRDSSTCPGDYVLSVSENSRVSHYIINSLPNRRFKIGDQEFDHLPALLEFYKIHYLDTTTLIEPAPRYPSPPMGSVSAPNLPTAEDNLEYVRTLYDFPGNDAEDLPFKKGEILVIIEKPEEQWWSARNKDGRVGMIPVPYVEKLVRSSPHGKHGNRNSNSYGIPEPAHAYAQPQTTTPLPAVSGSPGAAITPLPSTQNGPVFAKAIQKRVPCAYDKTALALEVGDIVKVTRMNINGQWEGEVNGRKGLFPFTHVKIFDPQNPDENE
# B3: CCT8; sequence looked up; chain ALHVPKAPGFAQMLKEGAKHFSGLEEAVYRNIQACKELAQTTRTAYGPNGMNKMVINHLEKLFVTNDAATILRELEVQHPAAKMIVMASHMQEQEVGDGTNFVLVFAGALLELAEELLRIGLSVSEVIEGYEIACRKAHEILPNLVCCSAKNLRDIDEVSSLLRTSIMSKQYGNEVFLAKLIAQACVSIFPDSGHFNVDNIRVCKILGSGISSSSVLHGMVFKKETEGDVTSVKDAKIAVYSCPFDGMITETKGTVLIKTAEELMNFSKGEENLMDAQVKAIADTGANVVVTGGKVADMALHYANKYNIMLVRLNSKWDLRRLCKTVGATALPRLTPPVLEEMGHCDSVYLSEVGDTQVVVFKHEKEDGAISTIVLRGSTDNLMDDIERAVDDGVNTFKVLTRDKRLVPGGGATEIELAKQITSYGETCPGLEQYAIKKFAEAFEAIPRALAENSGVKANEVISKLYAVHQEGNKNVGLDIEAEVPAVKDMLEAGILDTYLGKYWAIKLATNAAVTVLRVDQIIMAKPAGGPKPPSGKKDWDDDQND
# B4: DnaJ homolog DNAJC10; sequence looked up; chain DQDFYSLLGVSKTASSREIRQAFKKLALKLHPDKNPNNPNAHGDFLKINRAYEVLKDEDLRKKYDKYGEKGLEDNQGGQYESWNYYRYDFGIYDDDPEIITLERREFDAAVNSGELWFVNFYSPGCSHCHDLAPTWRDFAKEVDGLLRIGAVNCGDDRMLCRMKGVNSYPSLFIFRSGMAPVKYHGDRSKESLVSFAMQHVRSTVTELWTGNFVNSIQTAFAAGIGWLITFCSKGGDCLTSQTRLRLSGMLDGLVNVGWMDCATQDNLCKSLDITTSTTAYFPPGATLNNKEKNSILFLNSLDAKEIYLEVIHNLPDFELLSANTLEDRLAHHRWLLFFHFGKNENSNDPELKKLKTLLKNDHIQVGRFDCSSAPDICSNLYVFQPSLAVFKGQGTKEYEIHHGKKILYDILAFAKESVNSHVTTLGPQNFPANDKEPWLVDFFAPWCPPCRALLPELRRASNLLYGQLKFGTLDCTVHEGLCNMYNIQAYPTTVVFNQSNIHEYEGHHSAEQILEFIEDLMNPSVVSLTPTTFNELVTQRKHNEVWMVDFYSPWCHPCQVLMPEWKRMARTLTGLINVGSIDCQQYHSFCAQENVQRYPEIRFFPPKSNKAYHYHSYNGWNRDAYSLRIWGLGFLPQVSTDLTPQTFSEKVLQGKNHWVIDFYAPWCGPCQNFAPEFELLARMIKGKVKAGKVDCQAYAQTCQKAGIRAYPTVKFYFYERAKRNFQEEQINTRDAKAIAALISEKLETLRNQGKRNKDEL
# B5: CSE1L; sequence looked up; chain MELSDANLQTLTEYLKKTLDPDPAIRRPAEKFLESVEGNQNYPLLLLTLLEKSQDNVIKVCASVTFKNYIKRNWRIVEDEPNKICEADRVAIKANIVHLMLSSPEQIQKQLSDAISIIGREDFPQKWPDLLTEMVNRFQSGDFHVINGVLRTAHSLFKRYRHEFKSNELWTEIKLVLDAFALPLTNLFKATIELCSTHANDASALRILFSSLILISKLFYSLNFQDLPEFFEDNMETWMNNFHTLLTLDNKLLQTDDEEEAGLLELLKSQICDNAALYAQKYDEEFQRYLPRFVTAIWNLLVTTGQEVKYDLLVSNAIQFLASVCERPHYKNLFEDQNTLTSICEKVIVPNMEFRAADEEAFEDNSEEYIRRDLEGSDIDTRRRAACDLVRGLCKFFEGPVTGIFSGYVNSMLQEYAKNPSVNWKHKDAAIYLVTSLASKAQTQKHGITQANELVNLTEFFVNHILPDLKSANVNEFPVLKADGIKYIMIFRNQVPKEHLLVSIPLLINHLQAESIVVHTYAAHALERLFTMRGPNNATLFTAAEIAPFVEILLTNLFKALTLPGSSENEYIMKAIMRSFSLLQEAIIPYIPTLITQLTQKLLAVSKNPSKPHFNHYMFEAICLSIRITCKANPAAVVNFEEALFLVFTEILQNDVQEFIPYVFQVMSLLLETHKNDIPSSYMALFPHLLQPVLWERTGNIPALVRLLQAFLERGSNTIASAAADKIPGLLGVFQKLIASKANDHQGFYLLNSIIEHMPPESVDQYRKQIFILLFQRLQNSKTTKFIKSFLVFINLYCIKYGALALQEIFDGIQPKMFGMVLEKIIIPEIQKVSGNVEKKICAVGITKLLTECPPMMDTEYTKLWTPLLQSLIGLFELPEDDTIPDEEHFIDIEDTPGYQTAFSQLAFAGKKEHDPVGQMVNNPKIHLAQSLHKLSTACPGRVPSMVSTSLNAEALQYLQGYLQAASVTLL
# Chain of UniProt P09616 (whole entry, looked up): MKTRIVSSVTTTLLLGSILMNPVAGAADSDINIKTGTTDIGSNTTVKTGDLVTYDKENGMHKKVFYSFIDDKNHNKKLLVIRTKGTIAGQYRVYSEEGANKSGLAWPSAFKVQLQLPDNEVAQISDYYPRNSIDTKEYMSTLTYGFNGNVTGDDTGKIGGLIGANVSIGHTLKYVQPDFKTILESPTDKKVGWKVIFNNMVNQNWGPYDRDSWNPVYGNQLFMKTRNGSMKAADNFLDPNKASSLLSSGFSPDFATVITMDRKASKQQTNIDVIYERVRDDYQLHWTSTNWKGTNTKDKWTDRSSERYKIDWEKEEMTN
Molecule,tested on,assay,system,setting,scale,measurement,value
Polymyxin B,Escherichia coli,"broth microdilution, MH medium",carbapenem-resistant NCCP 16284,"16 h, 37 °C",,MIC,4 µM
cisplatin,MRC-5,cell viability,,,,IC50,7 ± 1 µM
B1 (C19orf43 protein),,"peptide binding, SILAC pull-down",,concentration not given,reference: non-acetylated over acetylated NIT1 peptide,log2 fold change,-0.685
RTLEDLLMGT,HN-30 (HLA-A2− HPV+),111In release,peptide,"concentration not given, 16 h, E:T 25:1 IVS 5, together with: peptide-generated T-cell line",,specific lysis,6.4%
EFTEDELPSDSCVFGGQKLTL,"IKK, human",,peptide,"500 µM, 10 min, 30 °C, together with: IκBα 1 µM",reference: no peptide,IκBα phosphorylation,14% and 19% and 3.25%
DnaJ homolog DNAJA4,,"peptide binding, SILAC pull-down",,concentration not given,reference: non-acetylated over acetylated NIT1 peptide,log2 fold change,0.387
amyloid β-peptide (1–28),,"substrate, LC-MS",phosphate buffer,"10 µM, 12 h, pH 7.4, 25 °C, together with: MINP(β1–14) 1 equiv",,remaining substrate,8.7 ± 1.2%
hexaarginine,PorA peptide pore,"peptide binding, planar bilayer single-channel recording",,"0.5 µM, pH 7.4, +5 mV, trans side, 150 mM KCl",,kon,3.33e+07 ± 3.5e+06 M⁻¹ s⁻¹
TLHEYMLDV,ASPC1 (HLA-A2− HPV−),111In release,peptide,"concentration not given, 16 h, E:T 25:1, IVS 5, together with: peptide-generated T-cell line",,specific lysis,0.6%
"RNA 1 AACAAAACAAAAUAGCACCGUAAAGC / RNA 2 GCUUUACGGUGCUA (dsRNA; 14 bp duplex, 5' 12 nt overhang)","rhlE 1-384 (Pseudomonas aeruginosa, UniProt Q9I689)",fluorescence polarization,double-stranded RNA,,,Kd,0.119 µM
DDDIAALVVDNGSGMCK (beta-actin),,"peptide binding, SILAC pull-down",,concentration not given,reference: non-acetylated over acetylated NIT1 peptide,log2 fold change,0.183
DPDPE,,RP-HPLC,HALO Peptide ES-C18 column,"25 µM, acetic acid/acetonitrile, 10 min gradient",,retention time,5.33 min
GWTLNSAGYLLGPRRIDHLLMIKEMPIARGREEAPGA / YAVDNHRSFNDKHGFT-NH2 (C-amide),,,"mouse, DSS-induced colitis","ip, 0.75 µM",,colon length,5.5 cm and 6 cm and 6.5 cm and 6.1 cm and 5.6 cm
glucagon,,arteriovenous isotope dilution,"human, non-diabetic","iv, dose not given, overnight fasted, baseline",,splanchnic extraction,29.1 ± 2.9%
KLPQLCTEL,HN12 (HLA-A2+ HPV+),111In release,peptide,"concentration not given, 16 h, E:T 25:1 IVS 5, together with: peptide-generated T-cell line",,specific lysis,16.5%
mitragynine,,substrate,human liver S9,10 min,,Vmax,0.093 nmol/min/mg protein and 0.0931 nmol/min/mg protein
colistin,Aspergillus fumigatus,,solid minimal medium,"50 µM, 4 d",reference: untreated control,radial growth ratio,0.867 and 0.847 and 0.838
B2 (CRKL),,"peptide binding, SILAC pull-down",,concentration not given,reference: non-acetylated over acetylated NIT1 peptide,log2 fold change,-0.258
aspterric acid,,root length,Arabidopsis thaliana Col-0 seeds,50 µg/mL,,inhibition,99.2%
oseltamivir carboxylate,Influenza A virus H1N1,"cytopathic effect, MTS",MDCK,,,EC50,0.2 µM
ASGVQVADEVCR (destrin),,"peptide binding, SILAC pull-down",,concentration not given,reference: non-acetylated over acetylated NIT1 peptide,log2 fold change,-0.274
heparin sodium,,,healthy Chinese adult volunteers,"continuous intravenous infusion, 8 IU/kg/h, 5 days",,subjects with AEs leading to discontinuation,0%
B3 (CCT8),,"peptide binding, SILAC pull-down",,concentration not given,reference: non-acetylated over acetylated NIT1 peptide,log2 fold change,1.85
QNLAIESIP,Mamu-B*08301 MHC class I,peptide binding,"peptide, Chinese rhesus macaque",,,IC50,> 20 µM
HVLVMSATRR,,,"peptide, C57BL/6J mice, male, blood","subcutaneous osmotic pump, 3 mg/kg/day peptide basis, 8 weeks",,segmented neutrophils,1% and 8% and 7% and 4%
B4 (DnaJ homolog DNAJC10),,"peptide binding, SILAC pull-down",,concentration not given,reference: non-acetylated over acetylated NIT1 peptide,log2 fold change,-0.488
polymyxin B,,calcein leakage,DOPC/DOPG/CHOL liposomes,"concentration not given, together with: 20 wt% PEG-8000",,maximum fusion,48 ± 1%
nonaarginine,PorA peptide pore,"peptide binding, planar bilayer single-channel recording",,"0.5 µM, pH 7.4, +10 mV, trans side, 150 mM KCl",,kon,2.8e+06 ± 300000 M⁻¹ s⁻¹
(−)-antroquinonol A,LNCaP,"cytotoxicity, MTS",,72 h,,IC50,> 25 µM
insulin human,,refers to: ADCY8 mRNA,"EcoHIV-infected mouse, brain","i.p., dose not given",reference: PBS,fold change,1.14
GWTLNSAGYLLGPHAVDNHRSFNDKHGFT-NH2 (C-amide),,,"peptide, Gnaq flox control mice, DSS colitis","ip, 3 µM, 2% DSS",,colon length,5.4 cm and 5.8 cm and 5.9 cm and 5.3 cm
VPIPFAAAQ,Mamu-B*08301 MHC class I,peptide binding,"peptide, Chinese rhesus macaque",,,IC50,> 20 µM
brain natriuretic peptide,"hly (Staphylococcus aureus, UniProt P09616)",nanopore sensing,,"asymmetric electrolyte, ionic strengths",,limit of detection,0.77 pM
Polymyxin B,,,mouse,"intraperitoneal, 30 mg/kg single dose, day 3",,survival,0%
B5 (CSE1L),,"peptide binding, SILAC pull-down",,concentration not given,reference: non-acetylated over acetylated NIT1 peptide,log2 fold change,2.67
PKYVKQNTLKLAT,stimulated healthy donor PBMCs,"single-epitope tetramer staining, refers to: DRB1*01:01 tetramer",peptide,concentration not given,reference: CD4 T cells,antigen-specific CD4 T cells,2.1%
pertussis toxin,,"immunostaining, refers to: p-PKC","humanized UT (+/h+) mice, SAH model, Macrophages, F4/80+, peri-MCA",dose not given,,phospho-PKC level,13.5 MFI and 15.7 MFI and 23.5 MFI
HFIKEKGGL,Mamu-A1*02601 MHC class I,peptide binding,"peptide, Chinese rhesus macaque",,,IC50,> 20 µM
